Published values pooled from the literature.
Each numbered part is a random draw from the data of one study; scales do not carry over between parts. Substitutions count along the parent as printed.

Series 1 — technique: RNA Bind-n-Seq; form: RNA; medium: in vitro; concentration: 200 nM; notes: whole 134-nt RNA, ends assumed; together with: 150 mM KCl; baseline: input library; reading: higher = stronger binding
Target: Fragile X messenger ribonucleoprotein 1, C-terminal low-complexity region (Fmr1, Mus musculus, UniProt P35922)
Sequence	log2 enrichment
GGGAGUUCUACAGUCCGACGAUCAGUCCUGUGCUACACAUCGUAUGUACCGAAUCGGAAAAAAAGGUUUUUUUGGAAAGGAAAGUAUUAUGUUACGCCGUUCGGAUCUGCACUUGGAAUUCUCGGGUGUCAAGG	-1.6
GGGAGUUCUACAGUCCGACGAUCUGGUGGACAGAAGGCACUGCAGCCUGAAAUGGCAGAGUCUGGUGCUGACGAUCCGCGAGAAGAUCAAUGCUGCCAUCCAGGACAUGCCAGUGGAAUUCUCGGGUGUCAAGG	-1.49
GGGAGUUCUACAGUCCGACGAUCAAGUCCUGUGCUACACAUCGUAUGUACCGAAUCGGGGAGGGGAGGGGAAAAAGGGGAAAGUAUUAUGUUACGCCGUUCGGAUCUGCACUUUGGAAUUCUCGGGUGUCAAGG	0.862
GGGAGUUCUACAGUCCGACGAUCUACUCAGCACAGAAAUUCAGGAGACACAGACAAGUUCUUCCACGAUGUCGUACAGACGAGAACUAGAGAAAUACCGUGACCUGGAUGAAGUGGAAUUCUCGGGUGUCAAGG	0.586
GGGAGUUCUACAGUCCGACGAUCCAAGUCCUGUGCUACACAUCGUAUGUACCGAAUCGGUUUUUUUGGAGGAAAAAGGAAAGUAUUAUGUUACGCCGUUCGGAUCUGCACUUCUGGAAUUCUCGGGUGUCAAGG	-0.488
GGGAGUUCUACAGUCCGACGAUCCUGUGCUACACAUCGUAUGUACCGAAUCGGGGUUUUUGGGGAAAAAAAGGGGAAAAAGGGGAAAGUAUUAUGUUACGCCGUUCGGAUCUGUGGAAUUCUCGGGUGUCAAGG	-0.263
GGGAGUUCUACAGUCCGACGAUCUAACUUUAGAGGAGGAUCUGAUGGAUAUGGCAGUGGACGUGGAUUUGGGGAUGGCUAUAAUGGGUAUGGAGGAGUACCUGGAGGUGGCAAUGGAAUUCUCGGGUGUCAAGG	0.131
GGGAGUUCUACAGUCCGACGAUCUAACUUUAGACGAGGAUCUGAUGGAUAUGGCAGUGGACGUGGAUUUGGGGAUGGCUAUAAUGGGUAUGGAGGAGGACCUGGAGGUGGCAAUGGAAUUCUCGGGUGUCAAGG	0.311
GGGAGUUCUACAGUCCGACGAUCUCCUGUGCUACACAUCGUAUGUACCGAAUCGGGGUUUUUGGGGAAAAAAAGGGGUGGGGAAAGUAUUAUGUUACGCCGUUCGGAUCUGCAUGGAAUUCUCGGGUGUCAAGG	0.831
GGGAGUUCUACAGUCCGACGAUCUGGCCCUGGUGGCAUGCGGGGAGGAAGAGGUGGCCUCAUGGAUCGUGGUGGUCCCGGUGGAAUGUUCAGAGGUGCCCGUGGUGGAGACAGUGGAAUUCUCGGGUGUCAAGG	0.208
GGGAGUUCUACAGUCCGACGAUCUGGGAGGUGGAUUUUGUUUAUUUUUUUAGCUCAUUUCCAUGGGUGGGAAUUUUUUUUUAAUAUGUGUCAUGAAUAAAGUUGUUUUUGAAAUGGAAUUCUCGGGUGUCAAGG	-0.0699
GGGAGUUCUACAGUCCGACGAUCCAAGUCCUGUGCUACACAUCGUAUGUACCGAAUCGGGGUUUGGUUUGGGUUUGGGAAAGUAUUAUGUUACGCCGUUCGGAUCUGCACUUCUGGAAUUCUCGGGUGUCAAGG	-0.00894
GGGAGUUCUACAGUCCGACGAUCAAGUCCUGUGCUACACAUCGUAUGUACCGAAUCGGGUUUGGGUUUUUUUGGGUGGGAAAGUAUUAUGUUACGCCGUUCGGAUCUGCACUUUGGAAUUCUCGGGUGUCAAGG	1.02
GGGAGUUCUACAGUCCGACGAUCUAACUUUAGAGGAGGAUCUGAUGGAUAUGGCCGUGGACGUGGAUUUGGGGAUGGCUAUAAUGGGUAUGGAGGAGGACCUGGAGGUGGCAAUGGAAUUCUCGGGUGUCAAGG	0.353

Series 2 — target: UBE2H UBC core domain (UniProt P62256); technique: yeast two-hybrid; medium: yeast; notes: mostly zero background; baseline: not given; reading: higher = stronger interaction
Sequence of UniProt P62256 (whole entry, looked up): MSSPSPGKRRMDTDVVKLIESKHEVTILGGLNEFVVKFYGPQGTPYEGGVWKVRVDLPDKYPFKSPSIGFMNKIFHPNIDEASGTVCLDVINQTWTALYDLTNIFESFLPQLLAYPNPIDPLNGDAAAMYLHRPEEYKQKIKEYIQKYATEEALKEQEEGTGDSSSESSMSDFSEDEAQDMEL
B1: PEX2 RING domain (UniProt P28328); chain DNTLATSGKECALCGEWPTMPHTIGCEHIFCYFCAKSSFLFDVYFTCPKCGTEVHSLQPLK
B2: RNF112 RING domain (UniProt Q9ULX5); chain QPMAPRELPTCSICLERLRDPISLDCGHDFCIRCFSTHRLPGCEPPCCPECRKICKQKRGLR
B3: ANKIB1 RING domain (UniProt Q9P2G1); chain LSPGDLDTSLCDICMCSISVFEDPVDMPCGHDFCRGCWESFLNLKIQEGEAHNIFCPAYDCFQLVPVDIIE
B4: TRIM55 RING domain (UniProt Q9BYV6); chain TMDNLEKQLICPICLEMFTKPVVILPCQHNLCRKCASDIFQASNPYLPTRGGTTMASGGRFRCPSCRHEVVLDRHG
B5: TRIM15 RING domain (UniProt Q9C019); chain SLKVVHELPACTLCAGPLEDAVTIPCGHTFCRLCLPALSQMGAQSSGKILLCPLCQEEEQAETPMA
B6: RNF32 RING domain (UniProt Q9H0A6); chain SLLQGDSVQPCPICKEEFELRPQVLLSCSHVFHKACLQAFEKFTNKKTCPLCRKNQYQTRVIH
B7: RNF5 RING domain (UniProt Q99942); chain ERGGAGATFECNICLETAREAVVSVCGHLYCWPCLHQWLETRPERQECPVCKAGISREKVVP
B8: RFPL2 RING domain (UniProt O75678); chain MAALFQEASSCPVCSDYLEKPMSLECGCAVCLKCINSLQKEPHGEDLLCCCSSMVSRKNKIRR
B9: MSL2 RING domain (UniProt Q9HCI7); chain LLPYFRQSLSCCVCGHLLQDPIAPTNSTCQHYVCKTCKGKKMMMKPSCSWCKDYEQFEENKQ
B10: TRIM38 RING domain (UniProt O00635); chain STKKMMEEATCSICLSLMTNPVSINCGHSYCHLCITDFFKNPSQKQLRQETFCCPQCRAPFHMDSLRP
B11: NSMCE1 RING domain (UniProt Q8WV22); chain RETYPDAVKICNICHSLLIQGQSCETCGIRMHLPCVAKYFQSNAEPRCPHCNDYWPHEIPKV
Molecule	lacZ reporter activity
KIKDLNEHIVCCLCAGYFVDATTITECLHTFCKSCIVKYLQTSKYCPMCNIKIHETQPLL (PCGF1 RING domain (UniProt Q9BSM1))	0
B1 (PEX2 RING domain)	0
MANWVFCNRCFQPPHRTSCFSLTNCGHVYCDACLGKGKKNECLICKAPCRTVLLSK (RNF212 RING domain (UniProt Q495C1))	0
KRQCSDVDDICSICQAEFQKPILLICQHIFCEECMTLWFNREKTCPLCRTVISDHINKW (RNFT1 RING domain (UniProt Q5M7Z0))	0
B2 (RNF112 RING domain)	0
QLQDEEDDSLCRICMDAVIDCVLLECGHMVTCTKCGKRMSECPICRQYVVRAVHVF (RNF34 RING domain (UniProt Q969K3))	0
ISNDSETLEECMVCSDMKRDTLFGPCGHIATCSLCSPRVKKCLICKEQVQSRTKIE (MIB1 RING domain (UniProt Q86YT6))	0
B3 (ANKIB1 RING domain)	0
B4 (TRIM55 RING domain)	0
B5 (TRIM15 RING domain)	0
B6 (RNF32 RING domain)	0
B7 (RNF5 RING domain)	0
B8 (RFPL2 RING domain)	0
B9 (MSL2 RING domain)	0
B10 (TRIM38 RING domain)	0
B11 (NSMCE1 RING domain)	0

Series 3 — technique: DHFR PCA, deep sequencing; medium: yeast; together with: (+)-ABA 0.39 µM; baseline: wild-type fitted maximum; reading: higher = stronger binding
Target: ABI1, truncated, D143A, DHFR fusion (Arabidopsis thaliana)
Notes: methotrexate growth selection, single substitutions
Parent: PYL1, truncated, DHFR fusion (Arabidopsis thaliana); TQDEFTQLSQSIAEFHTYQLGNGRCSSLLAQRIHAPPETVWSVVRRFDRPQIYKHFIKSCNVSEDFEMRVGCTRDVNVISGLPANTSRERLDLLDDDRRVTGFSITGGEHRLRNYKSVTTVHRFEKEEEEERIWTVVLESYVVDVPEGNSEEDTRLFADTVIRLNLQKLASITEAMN; partner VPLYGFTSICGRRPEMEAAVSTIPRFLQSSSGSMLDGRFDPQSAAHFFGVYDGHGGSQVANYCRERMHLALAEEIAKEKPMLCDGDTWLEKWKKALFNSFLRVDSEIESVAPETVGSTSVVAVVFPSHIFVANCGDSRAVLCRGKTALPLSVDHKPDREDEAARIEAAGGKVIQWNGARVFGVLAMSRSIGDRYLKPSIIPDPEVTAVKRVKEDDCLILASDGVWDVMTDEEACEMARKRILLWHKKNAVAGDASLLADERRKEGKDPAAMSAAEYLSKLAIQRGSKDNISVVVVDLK
Variant	relative binding score [%]
T119N	-5.01
F124E	13
K58Y	-1.05
D3C	26.7
T39V	62.5
H110T	42.8
V145H	-32.4
N149H	34.8
E4R	6.31
S140A	17.3
C60K	-13.2
L28I	65.3
T86N	56.1
E151H	26.8
D96Y	-11.9
F56R	-6.17
E139P	12.5
L93F	16
T120G	-6.43

Series 4 — target: CCNB1, cyclin fold, Cln2 fusion (human); technique: yeast growth competition, sequencing; medium: yeast; notes: weak parent motif; baseline: not given; reading: higher = stronger binding
Parent: DTL docking peptide (human); PSSMRKICTYFHR
Variant	normalised enrichment score
PSSMRKICAYFHR [T9A]	-0.0239
PSSMRKACTYFHR [I7A]	0.12
PSSMRAICTYFHR [K6A]	0.197
PSAMRKICTYFHR [S3A]	0.267
PSSMRKICTYFHA [R13A]	0.179
PSSMRKICTAFHR [Y10A]	0.128
PSSMRKICTYFAR [H12A]	0.336

Series 5 — target: NFE2L1, bZIP domain (human); technique: DHFR protein complementation; medium: yeast; baseline: wild-type JUN-FOS pair; reading: higher = stronger binding
Notes: single substitutions, most at no-binding floor
Parent: JUN, bZIP domain (human); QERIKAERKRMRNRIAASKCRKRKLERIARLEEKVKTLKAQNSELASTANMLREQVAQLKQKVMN; partner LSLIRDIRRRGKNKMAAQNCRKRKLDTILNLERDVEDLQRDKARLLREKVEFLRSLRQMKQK
Variant	binding fitness [natural log]
N42I	-1.58
A40N	-1.32
L38S	-1.51
E33W	-1.41
L31P	-1.53
T48G	-1.5
S47I	-1.48
S43I	-1.64
E32G	-1.5
S43T	-1.49
T48A	-1.47
N42A	-1.43
L31I	-1.48
A29D	-1.28
L31G	-1.44
E54Q	-1.4

A few entries again (series 3):
Variant	relative binding score [%]
L93F	16
T119N	-5.01
L28I	65.3
K58Y	-1.05
C60K	-13.2
D96Y	-11.9
T120G	-6.43
V145H	-32.4
